Measured values gathered from unrelated publications.
Numbered parts are unrelated; each lists some results of a single study. Substitutions count along the parent as printed.

Block 1
Target: CCNA1, cyclin fold, Cln2 fusion (human)
Method: yeast growth competition, sequencing
Sample: yeast
Notes: weak parent motif
Baseline: not given
Reading: higher = stronger binding
Starting sequence: SCAPER docking peptide (human); SNARRSLNFGGST; partner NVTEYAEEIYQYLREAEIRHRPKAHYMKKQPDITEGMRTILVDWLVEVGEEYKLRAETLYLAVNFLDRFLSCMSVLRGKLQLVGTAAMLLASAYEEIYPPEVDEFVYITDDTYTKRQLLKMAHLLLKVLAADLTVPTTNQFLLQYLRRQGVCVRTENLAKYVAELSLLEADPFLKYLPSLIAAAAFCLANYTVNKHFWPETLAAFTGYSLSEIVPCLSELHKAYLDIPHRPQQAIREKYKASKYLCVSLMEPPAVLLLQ
| Change | normalised enrichment score |
| --- | --- |
| GNARRSLNFGGST [S1G] | 0.473 |
| SNARRSLNHGGST [F9H] | 0.129 |
| SNARESLNFGGST [R5E] | 0.0111 |
| QNARRSLNFGGST [S1Q] | 0.477 |
| SNARRSLNFGCST [G11C] | 0.601 |
| SNARRSLNFGAST [G11A] | 0.751 |
| SNARRSLNFGGSK [T13K] | 0.966 |
| SNARRSLPFGGST [N8P] | 0.252 |
| SNARRSLLFGGST [N8L] | 0.213 |
| SNARRSENFGGST [L7E] | 0.33 |

Block 2
Target: Prothrombin, mature alpha-thrombin (F2, Homo sapiens, UniProt P00734)
Method: aptamer microarray, sandwich
Form: DNA with 2'F-ANA
Sample: in vitro
Concentration: 200 nM
Notes: whole 15-mer aptamer, many near background
Added: Cy3 exosite-II aptamer, 400 nM
Reading: higher = stronger binding
Sequence: GGTTGGTGTGGTTGG
| Modification | mean fluorescence intensity |
| --- | --- |
| 2'F-ANA at 1 9 10 | 56.9 a.u. |
| 2'F-ANA at 2 4 5 7 8 9 10 11 12 13 14 | 65.2 a.u. |
| 2'F-ANA at 3 4 5 7 8 9 12 14 | 144 a.u. |
| 2'F-ANA at 1 3 4 5 8 13 | 49.7 a.u. |
| 2'F-ANA at 9 12 | 950 a.u. |
| 2'F-ANA at 3 5 8 9 11 12 14 15 | 98.7 a.u. |
| 2'F-ANA at 5 6 7 10 12 | 52.5 a.u. |
| 2'F-ANA at 1 5 8 15 | 61.4 a.u. |
| 2'F-ANA at 3 6 8 13 15 | 808 a.u. |
| 2'F-ANA at 1 6 10 11 14 15 | 50.5 a.u. |
| 2'F-ANA at 3 4 6 7 9 12 | 834 a.u. |

Block 3
Target: Interferon regulatory factor 7, full length, phosphomimetic (IRF7, Homo sapiens, UniProt Q92985, residues 1-503, S471D/S472D/S475D/S476D/S477D/S483D/S484D/S487D)
Method: protein-binding microarray
Form: double-stranded DNA, one strand shown
Sample: in vitro
Concentration: 2200 nM top
Notes: 60-bp whole probe
Added: salmon DNA 0.4 mg/ml
Baseline: random background probes
Reading: higher = stronger binding
Constant ends, left off below: GCCTAGCAC … GTCTTGATTCGCTTGACGCTGCTG
Construct (chain): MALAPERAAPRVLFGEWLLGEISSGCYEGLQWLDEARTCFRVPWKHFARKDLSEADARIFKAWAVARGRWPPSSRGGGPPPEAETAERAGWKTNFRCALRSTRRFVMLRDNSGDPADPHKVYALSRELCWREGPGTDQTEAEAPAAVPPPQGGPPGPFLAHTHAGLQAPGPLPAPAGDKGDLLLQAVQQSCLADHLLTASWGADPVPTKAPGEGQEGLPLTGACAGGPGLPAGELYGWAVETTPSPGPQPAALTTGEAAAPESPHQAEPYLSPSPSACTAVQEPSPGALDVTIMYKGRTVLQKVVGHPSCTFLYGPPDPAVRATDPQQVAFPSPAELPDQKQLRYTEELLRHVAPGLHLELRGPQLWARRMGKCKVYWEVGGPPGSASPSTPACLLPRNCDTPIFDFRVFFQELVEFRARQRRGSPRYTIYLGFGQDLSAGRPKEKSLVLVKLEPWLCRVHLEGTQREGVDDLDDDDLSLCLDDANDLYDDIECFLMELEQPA
| Sequence | fitted relative affinity [z-score] |
| --- | --- |
| TTAGAACTGGGGACTGGTTTAGTGCTA | -0.429 |
| TCATGTTGCAAATATTGCACTGTGCTA | 0.656 |
| TCCGTATGGATGGCCAATTGGTGCTAG | 0.0263 |
| TGAGGTTTCGGTTTCGGTTAGTGCTAG | 16.8 |
| GACGAACTGAGACTGAAGACGTGCTAG | -0.164 |
| TCATTTGTTTTTTTCTAACTGTGCTAG | 2.04 |
| GACGGTATCCTACTGCTGCCGTGCTAG | 0.301 |
| TCATTTTTATCAATCATACTGTGCTAG | 1.3 |
| AAGGGTTAAAATTTTGCTTCGTGCTAG | -0.338 |
| TTAGGTTTACTTTCCCTTTAGTGCTAG | 6.73 |
| GAGAGAGCTTGTCTGCAGCCGTGCTAG | -0.526 |
| GACGGCCTGGGGTATCGGGACGTGCTA | -1.29 |
| GACGGACTCGGACTGGGGACGTGCTAG | -0.454 |

Further values, each from its own experiment
| Molecule | target | test | test system | conditions | scale | quantity | value |
| --- | --- | --- | --- | --- | --- | --- | --- |
| PhoQ, residues 284 288 289 292 302 303 AAQSYM | PhoP, residues 12 14 15 18 19 LHHSG (Escherichia coli, UniProt P23836) | Sort-seq, refers to: YFP reporter | E. coli | PhoQ-PhoP variant library, added: 10 µM Mg2+ | baseline: high Mg2+ state, higher = stronger signaling | fold induction | 11.6 |
